# Assay results collected from several papers.
# ± marks the error that the study gave.
Compound,test,system,setting,AUC(0-24)
Cn1c(=O)oc2ccc(-c3ccc(C[C@@H](C#N)NC(=O)[C@@H]4CNCCCO4)cc3)cc21,HPLC-MS/MS,"healthy male humans, plasma","oral, 40 mg",15.7 µM·h
Cc1nc(-c2ccc(OCC(C)C)c(C#N)c2)sc1C(=O)O,,"human, plasma","oral, 10 mg once daily, with: verinurad 5 mg",0.975 µg·h/mL
CC(=O)O[C@H]1C(=O)[C@@]2(C)[C@H]([C@H](OC(=O)c3ccccc3)[C@]3(O)C[C@H](OC(=O)[C@H](O)[C@@H](NC(=O)c4ccccc4)c4ccccc4)C(C)=C1C3(C)C)[C@]1(OC(C)=O)CO[C@@H]1C[C@@H]2O,,"human, plasma","intravenous, 80 mg/m^2, day 8, DL2, with: nilotinib 300 mg",4.4 ± 1.48 µM·h
N#Cc1ccc2c(c1)[C@H]1CCCN(C(=O)c3ccc4[nH]cnc4c3)[C@H]1C2,,"human, plasma","oral, 240 mg once daily, after first dose",132 µM·h
COc1cc(C(=O)NC2CCN(C)CC2)c(F)cc1Nc1ncc(C(F)(F)F)c(Oc2cccc3c2C(=O)N(C)C3)n1,,human patients,"oral, 50 mg, cycle 1 day 1, geometric mean",2.86 µM·h
CC(C)[C@H](N)C(=O)NCCCS(=O)(=O)O,,"human both sexes, plasma","oral, 265 mg once daily, day 1, fed tablet",10.3 µg·h/mL
C[C@@H]1CCO[C@H]2Cn3cc(C(=O)NCc4ccc(F)cc4F)c(=O)c(O)c3C(=O)N12,,"human paediatric patients, weight sample E to under sample F kg, plasma","oral, 35 mg film-coated tablet, steady state, geometric mean, population PK post-hoc, N 8",43.8 µg·h/mL
Cc1ccc([C@@H]2O[C@H](CO)[C@@H](O)[C@H](O)[C@H]2O)cc1Cc1ccc(-c2ccc(F)cc2)s1,,"human, maintenance hemodialysis patients","oral, 300 mg once daily, day 8, steady state, median",19 µg·h/mL
CC(C)(Sc1ccncc1-c1ccc(C#N)c2ccccc12)C(=O)O,,"human, plasma","oral, 2.5 mg once daily, with: febuxostat 0 mg",0.0548 µg·h/mL
CC(=O)O.NC(=O)c1cnc(N[C@@H]2CCCC[C@@H]2N)nc1Nc1cccc(-n2nccn2)c1,,"human, plasma","oral, 11 mg once daily",0.106 µg·h/mL
Cc1cc(Nc2cc3ncccc3c(N[C@@H]3C[C@H]4CC[C@@H](C3)N4CCC#N)n2)n[nH]1,,"human, plasma","300 mg single dose, mean",0.0209 µg·h/mL

# For quick reference, copied from above:
Compound,test,system,setting,AUC(0-24)
Cc1nc(-c2ccc(OCC(C)C)c(C#N)c2)sc1C(=O)O,,"human, plasma","oral, 10 mg once daily, with: verinurad 5 mg",0.975 µg·h/mL
